Assay results of several laboratories.
Compare with care: the assays were run in different laboratories. ± marks the error that the study gave.
DRD3: D(3) dopamine receptor (DRD3, Homo sapiens, UniProt P35462)
Chain of UniProt P35462 (whole entry, looked up): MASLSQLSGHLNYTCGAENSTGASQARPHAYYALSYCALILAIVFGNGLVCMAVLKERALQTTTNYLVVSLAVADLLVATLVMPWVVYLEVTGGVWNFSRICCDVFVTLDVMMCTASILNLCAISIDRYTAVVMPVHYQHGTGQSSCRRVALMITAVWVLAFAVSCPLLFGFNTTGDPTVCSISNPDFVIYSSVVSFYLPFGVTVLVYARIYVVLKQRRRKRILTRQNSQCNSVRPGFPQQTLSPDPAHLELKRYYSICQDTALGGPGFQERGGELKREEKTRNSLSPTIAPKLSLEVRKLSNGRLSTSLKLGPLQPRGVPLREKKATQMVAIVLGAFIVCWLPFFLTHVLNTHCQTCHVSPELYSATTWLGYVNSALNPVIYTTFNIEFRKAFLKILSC
Sterol carrier protein 2: Sterol carrier protein 2 (Homo sapiens, UniProt P22307)
Chain of UniProt P22307 (whole entry, looked up): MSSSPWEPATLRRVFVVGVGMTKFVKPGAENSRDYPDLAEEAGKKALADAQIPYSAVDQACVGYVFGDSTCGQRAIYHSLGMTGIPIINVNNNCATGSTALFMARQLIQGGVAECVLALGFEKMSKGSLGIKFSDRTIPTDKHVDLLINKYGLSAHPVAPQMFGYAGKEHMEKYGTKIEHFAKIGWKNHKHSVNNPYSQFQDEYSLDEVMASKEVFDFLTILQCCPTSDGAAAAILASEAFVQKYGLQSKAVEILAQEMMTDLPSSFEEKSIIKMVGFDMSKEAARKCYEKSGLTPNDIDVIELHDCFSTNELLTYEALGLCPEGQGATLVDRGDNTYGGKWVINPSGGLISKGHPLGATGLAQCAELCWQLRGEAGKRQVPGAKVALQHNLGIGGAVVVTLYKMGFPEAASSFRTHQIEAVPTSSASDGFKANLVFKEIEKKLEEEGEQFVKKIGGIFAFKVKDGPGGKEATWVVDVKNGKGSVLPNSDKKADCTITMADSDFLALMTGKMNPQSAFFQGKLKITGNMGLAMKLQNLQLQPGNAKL
TMEM97: Sigma intracellular receptor 2 (TMEM97, Homo sapiens, UniProt Q5BJF2)
Chain of UniProt Q5BJF2 (whole entry, looked up): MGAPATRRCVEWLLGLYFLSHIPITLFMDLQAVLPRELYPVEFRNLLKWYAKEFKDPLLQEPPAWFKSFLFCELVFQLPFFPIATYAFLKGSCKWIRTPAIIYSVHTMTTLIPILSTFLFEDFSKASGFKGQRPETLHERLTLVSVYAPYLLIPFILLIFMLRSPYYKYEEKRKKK
Chain of UniProt P42224 (whole entry, looked up): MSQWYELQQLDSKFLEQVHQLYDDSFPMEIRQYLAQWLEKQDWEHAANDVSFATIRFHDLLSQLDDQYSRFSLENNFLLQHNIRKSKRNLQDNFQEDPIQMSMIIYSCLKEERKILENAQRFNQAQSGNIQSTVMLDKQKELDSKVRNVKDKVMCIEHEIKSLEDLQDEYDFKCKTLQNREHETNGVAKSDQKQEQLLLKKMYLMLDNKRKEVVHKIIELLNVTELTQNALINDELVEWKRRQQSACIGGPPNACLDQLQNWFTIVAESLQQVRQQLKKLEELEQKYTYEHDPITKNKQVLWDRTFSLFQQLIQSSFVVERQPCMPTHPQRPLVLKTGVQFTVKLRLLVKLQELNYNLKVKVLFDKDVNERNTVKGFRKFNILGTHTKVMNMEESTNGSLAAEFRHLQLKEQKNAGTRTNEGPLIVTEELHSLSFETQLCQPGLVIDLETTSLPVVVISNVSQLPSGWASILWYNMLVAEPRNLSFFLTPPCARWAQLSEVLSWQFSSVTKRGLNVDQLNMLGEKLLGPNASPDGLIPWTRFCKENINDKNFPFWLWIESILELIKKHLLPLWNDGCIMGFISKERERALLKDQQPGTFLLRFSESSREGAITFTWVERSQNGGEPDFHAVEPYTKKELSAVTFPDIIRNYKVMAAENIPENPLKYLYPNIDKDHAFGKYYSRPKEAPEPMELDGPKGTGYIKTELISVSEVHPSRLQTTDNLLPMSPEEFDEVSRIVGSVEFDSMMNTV
Chain of UniProt P10587 (whole entry, looked up): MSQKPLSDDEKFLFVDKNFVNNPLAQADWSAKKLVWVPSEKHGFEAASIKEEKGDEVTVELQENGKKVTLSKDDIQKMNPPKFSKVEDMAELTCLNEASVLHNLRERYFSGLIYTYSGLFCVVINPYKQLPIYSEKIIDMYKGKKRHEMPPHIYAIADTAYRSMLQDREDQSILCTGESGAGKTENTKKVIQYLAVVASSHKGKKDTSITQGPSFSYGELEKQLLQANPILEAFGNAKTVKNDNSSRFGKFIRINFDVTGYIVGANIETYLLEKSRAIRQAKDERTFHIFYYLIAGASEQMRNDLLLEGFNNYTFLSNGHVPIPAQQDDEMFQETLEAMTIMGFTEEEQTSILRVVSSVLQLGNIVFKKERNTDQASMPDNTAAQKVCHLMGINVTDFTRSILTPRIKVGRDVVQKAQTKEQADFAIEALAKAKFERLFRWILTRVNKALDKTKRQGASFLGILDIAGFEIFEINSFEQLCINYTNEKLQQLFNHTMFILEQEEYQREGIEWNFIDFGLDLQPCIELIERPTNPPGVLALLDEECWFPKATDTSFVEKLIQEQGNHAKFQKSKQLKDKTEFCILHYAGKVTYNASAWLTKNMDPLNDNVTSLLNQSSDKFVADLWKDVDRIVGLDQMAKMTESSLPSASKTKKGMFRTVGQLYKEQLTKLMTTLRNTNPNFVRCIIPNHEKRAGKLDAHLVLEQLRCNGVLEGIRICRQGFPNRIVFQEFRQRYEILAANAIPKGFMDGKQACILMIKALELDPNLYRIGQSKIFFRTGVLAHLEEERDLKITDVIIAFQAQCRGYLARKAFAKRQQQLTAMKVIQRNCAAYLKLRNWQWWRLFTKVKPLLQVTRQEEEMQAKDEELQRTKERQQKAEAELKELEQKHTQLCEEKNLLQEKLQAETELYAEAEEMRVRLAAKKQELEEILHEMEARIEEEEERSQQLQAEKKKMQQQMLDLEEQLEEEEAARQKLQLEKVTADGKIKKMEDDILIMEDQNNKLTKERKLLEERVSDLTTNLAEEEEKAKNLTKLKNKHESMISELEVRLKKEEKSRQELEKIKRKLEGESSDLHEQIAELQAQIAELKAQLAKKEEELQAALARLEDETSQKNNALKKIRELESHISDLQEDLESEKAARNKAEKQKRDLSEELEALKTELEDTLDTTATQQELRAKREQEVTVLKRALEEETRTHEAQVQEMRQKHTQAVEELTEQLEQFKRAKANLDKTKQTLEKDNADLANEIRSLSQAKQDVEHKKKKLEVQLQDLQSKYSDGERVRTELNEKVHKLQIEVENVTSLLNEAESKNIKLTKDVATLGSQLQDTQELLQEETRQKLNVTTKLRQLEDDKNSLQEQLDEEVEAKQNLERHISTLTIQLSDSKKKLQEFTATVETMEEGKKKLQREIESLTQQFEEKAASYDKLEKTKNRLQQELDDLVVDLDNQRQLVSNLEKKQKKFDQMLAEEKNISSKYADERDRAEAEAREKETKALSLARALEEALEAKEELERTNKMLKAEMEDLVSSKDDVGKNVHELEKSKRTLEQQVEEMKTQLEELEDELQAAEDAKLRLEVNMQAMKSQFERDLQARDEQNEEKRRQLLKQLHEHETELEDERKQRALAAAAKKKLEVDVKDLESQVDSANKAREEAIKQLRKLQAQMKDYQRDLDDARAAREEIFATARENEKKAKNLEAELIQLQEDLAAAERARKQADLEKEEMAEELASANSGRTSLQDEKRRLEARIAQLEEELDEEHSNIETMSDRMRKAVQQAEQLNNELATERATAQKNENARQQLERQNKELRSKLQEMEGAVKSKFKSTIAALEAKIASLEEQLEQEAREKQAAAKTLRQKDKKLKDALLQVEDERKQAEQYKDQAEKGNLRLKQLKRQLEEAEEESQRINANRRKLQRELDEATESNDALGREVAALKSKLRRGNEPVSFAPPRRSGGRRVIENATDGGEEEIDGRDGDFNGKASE
Chain of UniProt P60651 (whole entry, looked up): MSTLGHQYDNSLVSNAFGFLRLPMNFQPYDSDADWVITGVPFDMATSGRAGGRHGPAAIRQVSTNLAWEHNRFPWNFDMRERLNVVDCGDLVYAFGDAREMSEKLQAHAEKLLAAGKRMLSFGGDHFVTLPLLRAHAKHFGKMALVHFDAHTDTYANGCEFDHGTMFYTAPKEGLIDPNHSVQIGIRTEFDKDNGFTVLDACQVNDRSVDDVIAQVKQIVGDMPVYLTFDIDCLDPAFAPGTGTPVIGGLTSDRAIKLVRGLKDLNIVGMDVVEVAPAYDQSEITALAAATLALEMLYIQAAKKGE
Chain of UniProt P09483 (whole entry, looked up): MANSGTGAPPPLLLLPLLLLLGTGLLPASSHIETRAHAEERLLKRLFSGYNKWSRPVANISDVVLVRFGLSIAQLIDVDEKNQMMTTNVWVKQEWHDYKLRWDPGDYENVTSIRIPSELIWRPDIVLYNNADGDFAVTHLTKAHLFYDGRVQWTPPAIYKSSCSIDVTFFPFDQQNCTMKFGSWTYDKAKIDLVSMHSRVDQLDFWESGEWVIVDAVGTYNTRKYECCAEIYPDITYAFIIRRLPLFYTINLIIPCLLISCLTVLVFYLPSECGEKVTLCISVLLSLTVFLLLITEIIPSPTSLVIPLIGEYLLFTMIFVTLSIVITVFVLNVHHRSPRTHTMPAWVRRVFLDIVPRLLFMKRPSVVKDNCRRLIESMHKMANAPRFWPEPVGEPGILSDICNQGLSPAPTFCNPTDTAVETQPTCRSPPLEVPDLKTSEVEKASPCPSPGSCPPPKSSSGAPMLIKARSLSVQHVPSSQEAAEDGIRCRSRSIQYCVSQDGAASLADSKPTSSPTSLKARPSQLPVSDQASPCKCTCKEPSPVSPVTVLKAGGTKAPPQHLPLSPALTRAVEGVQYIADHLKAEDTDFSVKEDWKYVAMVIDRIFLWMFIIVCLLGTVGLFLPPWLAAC
Chain of UniProt O15540 (whole entry, looked up): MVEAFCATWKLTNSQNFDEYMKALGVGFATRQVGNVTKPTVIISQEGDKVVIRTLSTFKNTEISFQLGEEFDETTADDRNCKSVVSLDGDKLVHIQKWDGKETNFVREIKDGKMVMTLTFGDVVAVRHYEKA

`OC(c1ccc(F)cc1)C(F)(F)CCN1CCC(O)(c2ccc(Cl)cc2)CC1` (racemic) gave a Ki of 3.82 ± 0.399 µM (DRD3).
With `FCCCc1cncc(OC[C@@H]2C=CCN2)c1` the Ki was 0.00036 µM (Neuronal acetylcholine receptor; alpha4/beta2 (Rattus norvegicus, UniProt P09483+P12390); binding, radioligand displacement; rat brain homogenate; added: [3H]cytisine).
`O=C(O)C(F)(F)C(F)(F)C(F)(F)C(F)(F)C(F)(F)C(F)(F)C(F)(F)F` has a Ki of greater than 64 µM (Sterol carrier protein 2; binder, NBD-stearic acid displacement fluorescence; recombinant protein).
`COc1ccccc1NC(=O)Nc1nc(-c2cccnc2)nc2ccccc12` has an IC50 of 2.51 µM (Plasmodium falciparum; 7G8).
The Ki of `CCCCC1CNC2CCc3ccc(OC)cc3C12` (racemic) is reported as 0.0025 µM (TMEM97; binding, PDSP radioligand binding).
`O=C[C@H](O)COP(=O)(O)O` gave a Ki of 7300 ± 2800 µM (dxs (Pseudomonas aeruginosa, UniProt Q9KGU7)).
For `C#C[C@@H](C)NCC(=O)O`, the Ki was 8700 ± 500 µM (putA, PRODH domain (Sinorhizobium meliloti, UniProt F7X6I3, del84-189); inhibitor).
The Ki of `CCc1c(-c2ccccc2)c(-c2ccccc2)nn1-c1ccccc1-c1cccc(OCC(=O)O)c1` is reported as 0.19 µM (Fatty acid-binding protein, brain (Homo sapiens, UniProt O15540); binding, radioligand competition; 37 °C, delipidated protein 2.5 µM, added: [3H]oleic acid).
With `O=P(O)(O)Oc1ccccc1OP(=O)(O)O` the Ki was 44 ± 1 µM (STAT1 (Homo sapiens, UniProt P42224); inhibitor).
For `CN(C)C(=N)N=C(N)N`, the Ki was 1140 ± 120 µM (speB (Escherichia coli, UniProt P60651); competitive inhibitor; pH 7.5, added: agmatine).
`OC(CCN1CCCCC1)(c1ccccc1)C1CCCCC1` (stereo not drawn) gave a Ki of 1.91 µM (TMEM97; binding).
The Ki of `COc1ccc(S(=O)(=O)N(CC(C)C)C[C@@H](O)[C@H](Cc2ccccc2)NC(=O)O[C@H]2C[C@@H]3C[C@H]4[C@H](OC[C@H]42)O3)cc1` is reported as 2e-06 µM (Gag-Pol polyprotein, protease (gag-pol, Human immunodeficiency virus type 1 group M subtype B, UniProt P04585); enzyme activity, inhibitor).
For `CC[C@]1(O)C[C@H]2CN(CCc3c([nH]c4ccccc34)[C@@](C(=O)OC)(c3cc4c(cc3OC)N(C=O)[C@H]3[C@@](O)(C(=O)OC)[C@H](OC(C)=O)[C@]5(CC)C=CCN6CC[C@]43[C@@H]65)C2)C1`, the IC50 was 0.1 µM (Plasmodium falciparum; 3D7).
`C=CCSCC(=O)O` has a Ki of 8000 ± 1000 µM (putA (Sinorhizobium meliloti, UniProt F7X6I3)).
The Ki of `CC(=O)P(=O)(O)OCCc1cn([C@H](Cc2ccccc2)C(=O)O)nn1` is reported as 15 ± 3 µM (dxs (Pseudomonas aeruginosa, UniProt Q9KGU7, R482A); inhibitor).
`O=C(O)C(F)(F)C(F)(F)C(F)(F)C(F)(F)C(F)(F)C(F)(F)C(F)(F)C(F)(F)C(F)(F)C(F)(F)C(F)(F)C(F)(F)C(F)(F)F` gave a Ki of 3.3 ± 0.31 µM (Sterol carrier protein 2; binder, NBD-stearic acid displacement fluorescence; recombinant protein).
`COc1cc(N2CC[C@@]3(O)C(=O)c4cc(C)c(C)cc4N=C23)ccn1` has a Ki of 4 µM (MYH11, S1 fragment (Gallus gallus, UniProt P10587); ATPase activity, inhibitor).
The Ki of `O[C@H](CCCN1CCC(O)(c2ccc(Cl)cc2)CC1)c1ccc(F)cc1` is reported as 5.4 ± 0.353 µM (DRD3).
